Experimental data pooled from the literature.
Every numbered part comes from another study and shows a few of its results, in no order. Substitutions count along the parent as printed.

Set 1
Target: Interferon regulatory factor 5, full length, phosphomimetic (IRF5, Homo sapiens, UniProt Q13568-2, residues 1-514, S451D/S453D/S456D/S462D)
Technique: protein-binding microarray
Form: double-stranded DNA, one strand shown
Sample: in vitro
Tested at: 940 nM top
Setting: 60-bp whole probe
Added: salmon DNA 0.4 mg/ml
Relative to: random background probes
Reading: higher = stronger binding
Endpoint: fitted relative affinity
Constant ends, left off below: GCCTAGCAC … GTCTTGATTCGCTTGACGCTGCTG
GTGACTCAGCACTTTGGCATGGTGCTA: -0.595 z-score
TCAGGACTGGGTTTCGGTTAGTGCTAG: 7.34 z-score
GAAGGACTGGGACTGGGGACGTGCTAG: -0.539 z-score
TCCATTTTCTAAATTCCCTAGTGCTAG: 1.02 z-score
TTAGATTTGAGTTCCGATTAGTGCTAG: 0.775 z-score
GACGGACTGGGTCTCGGGACGTGCTAG: -0.233 z-score
TTGGGACTGGACACTGGGTTAGTGCTA: -0.285 z-score
GACGATCTCCGTATCGAGACGTGCTAG: 0.701 z-score
TGGGATTTTGTCCTCCCCTCGTGCTAG: -0.144 z-score
TTAGGACTGGGACTGGATTAGTGCTAG: -0.358 z-score
GACGATCTCATTTTCGAGACGTGCTAG: 0.831 z-score
TCACATTTAGAAAATGGAACTGTGCTA: -0.0839 z-score

Set 2
Target: RNA binding protein fox-1 homolog 2, RRM domain, GST-SBP tag (RBFOX2, Homo sapiens, UniProt O43251-10, residues 100-194)
Technique: RNA Bind-n-Seq
Form: RNA
Sample: in vitro
Tested at: 365 nM
Setting: natural RNA segment, single round, ends assumed
Relative to: no-protein control
Reading: higher = stronger binding
Endpoint: RBNS enrichment (R)
Constant ends, left off below: GGGAGUUCUACAGUCCGACGAUC … UGGAAUUCUCGGGUGCCAA
Construct (chain): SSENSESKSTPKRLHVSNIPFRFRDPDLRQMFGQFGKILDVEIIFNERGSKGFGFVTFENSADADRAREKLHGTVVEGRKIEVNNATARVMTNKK
GGUGACUGAUGUGGCCGAAGCAGGUGUCCAGGCAGGUAGGCUGCAGCCAGGAGCUCCCUGGCACCGCAGGACCUCGUGGUACUCUUGCCUUAGAUUUUACACACACUCCA: 0.351
AGAUUUUUAAAAUUUCAAAUCCUAAAUCACUUCUUGUAGGAGGGUUUUCAUUAACUGCAGUAUAUACAGUUCACUACAUAUGGGUUGUUUGAGUUUUUUGUGUGCUGUAU: 1.76
UAAAGGUUUUGGAGCCCACCUAGGGGUAGGUGCAGCUUUAUUGGCUUUUCUGUGGAUUCUCUCAGUGGACCCACACCAUCUCUAUGUCUCUCCACUCUCCUGCCUUCAGC: 0.339
UCUCCCAGUGACCGGCCGCUGUGUGUCCGCUCUGGGCCGACGCUUCCAUCCAGACCACUUCACCUGCACAUUCUGCCUGCGCCCACUCACCAAAGGCUCCUUCCAGGAGC: 0.8
UGUAUCUUACAGCAUUGUACCCCAUUGUUAAAGAGCCGUGUCCCCUCUUCUUAUAAACGCCCUUCUAAUAAACUUUUCACCGUAAAGCUCCUGAGACAGGAGCACAGUCU: 0.643
AACCUCCUGCCUCCCAAUACCAGCAGGAGGUUCUGGGCCUCUGAACCCCCUUUCCCCACACCUCCCCCUGCUGCUGCUGCCCCAGCGUCUUGACGGGAGCAUUGGCCCCU: 0.463
UGGUUGCUGGAGGAGGCCAGUGUAGAGCCAGUGAGAGAACUAGGAAUGACACUCAGGUUCACUGUGGAAAACUGUUCUUGGGACUGUCUCAACUGUGCAAAAAACAAAAG: 0.77
AGGACCAGCCUCUGGAUCAGUCCCUCUCUGCCCCUUCACUUCUGUCUCUAGCUCACUGGCUCUGUGGGCUUGGGCUCUGCCCCUACAACGGCUCUCAGAAGCAUUCACAC: 0.474
UAACCGUGGGCCGGGACCUUAAGGCCUCUGUGUGGCAGAAGGAUCAGCUGGUGACACAGCUGCACUGGCAAGAAAAUGGACCCACCUUUUCCAGCACACCUUACCGCUAC: 0.208
GCCCUGCUGCCAGUCAUCUCCACUGAAUAAAGAAUAAUGCUCCUCUUUCAGGGUAAUAAAGUGGGGAAAAGGAACGUCUUCUCAAUGCAAGAACAUAAGCUUUCUCGUAU: 0.34
CCAAGUGCCUUUGCUAUGUUUUUAUAUCCUGGACUGGAGGUUUAUUUUUAAUAUAUAUUAUCUAAGGAAAGAUCUGUGUGUGUGAGGGCGUUGGGCAGUGCGCCCCAUGU: 1.36
AGUAUGAACAAUGGGCACGGGGUUUUCAGCCACAGUUCCCUCGAGGCCAGUGUUCAGCAGGAUCAUGCCUUCUGUGUCUGGAAGAGGCGGCAGAGGCAACAGUGUUUAGG: 0.423

Set 3
Target: RING finger protein unkempt homolog, zinc fingers 1-6, GST-SBP tag (UNK, Homo sapiens, UniProt Q9C0B0, residues 30-357)
UniProt Q9C0B0, sequence (30-357, looked up): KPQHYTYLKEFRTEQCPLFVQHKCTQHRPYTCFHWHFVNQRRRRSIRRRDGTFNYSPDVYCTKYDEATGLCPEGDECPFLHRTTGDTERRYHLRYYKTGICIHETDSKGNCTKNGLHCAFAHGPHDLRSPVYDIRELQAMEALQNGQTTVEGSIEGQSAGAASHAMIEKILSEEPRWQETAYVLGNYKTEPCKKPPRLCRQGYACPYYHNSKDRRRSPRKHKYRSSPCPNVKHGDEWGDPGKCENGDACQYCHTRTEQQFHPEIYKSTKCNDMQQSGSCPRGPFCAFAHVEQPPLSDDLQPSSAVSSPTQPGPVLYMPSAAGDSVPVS
Technique: RNA Bind-n-Seq
Form: RNA
Sample: in vitro
Tested at: not given
Setting: RNA with constant flanks, ends assumed
Relative to: input RNA pool
Reading: higher = stronger binding
Endpoint: bound/input enrichment
Constant ends, left off below: GGGAGUUCUACAGUCCGACGAUC … CAACAGAGGAUUGAGCAUCA
GAAAUUAUUAAAAACAAGGGGGGUGGGUAAUAAAUGUAUAUAACAUUAAAUAAUGUAACGCCGGUGCCGAUUCCCAAAUGCAUUUGGAUGUACAGAUCGACUACAGAGUACUUUUUUCUU: 0.316 ratio
CCUGUUCUCAUUUCAGCUAUGAAGAUUUUUGUUACAACCAAAAACUCAAAAAACCAAGGAACCGAAGAAGCUUUGAAAAAUCGAAAUUUUACUGUAGAAAAGAUGAGUGCUGAAAUUAAC: 0.263 ratio
GAAGUCAGAAAGAAAUGUGCUGAGGAGGCCCAACUGAUCUCUUCUCUGAAAGCUGAAUUAACCCGUCAGGAAUCGCAGAUCUCCACUUACGAAGAAGAAUUGGCAAAAGCUAGAGAAGAG: 0.227 ratio
GAAAUGAAAUACUACAUAGUGCAUUUGAAACGCCACUUUAUGUUUCGAAACCAUCUCUGUUCCGUUUUUGAAAUGCUGUCCUACAACCUCUAUGACUUGCUGAGAAACACCAAUUUCCGA: 0.204 ratio
AAGCAACUUAUGGAAACAACUACAGAAUUUACAAAAAAGCUUCGGUGUUUACUUGCCUGGCAACCGCAUUGGGAUUUUAUAGAUUCUGGAAGUAGUAUUAAUGCUCAUCCUGCUGUGGCU: 0.838 ratio
UCCCACUCCUCGGCAGACAUCAACUCCAGUCUUCCUCCGAUGUCCACGUUCCAUCGCCGUGGCACAAACCAUUACAGCACCUCUUCCUGCACACCCCCUGCCAACGGAACAGACAGUAUA: 0.417 ratio
GCUGGGCAUAUAAUGGAAUUUUCUCAAGACCAGCAUGGCUCUAGAUUCAUUCAGCUGAAACCCGAGCGUGCCACAGCAGCUGAGCGCCAGCUUGUCUUCAAUGAAAUCCUCCAGGCUGCG: 0.163 ratio

Set 4
Target: CCND2, cyclin fold, Cln2 fusion (human)
Technique: yeast growth competition, sequencing
Sample: yeast
Setting: weak parent motif
Relative to: not given
Reading: higher = stronger binding
Endpoint: normalised enrichment score
Starting sequence: CDKN1A docking peptide (human); SKACRRLFGPVDS
P10R: 0.0384
F8G: 0.119
P10S: 0.37
F8T: -0.745
R5C: 0.492
A3V: 0.0427
V11N: 0.579
D12R: 0.0442
D12C: 0.267
C4V: 0.387
R6W: 0.00123
R6P: -0.0368
A3G: 0.0566
L7Y: 0.184
V11R: 0.532

Set 5
Target: Centromere-binding protein 1, full length, His-tagged (CBF1, Saccharomyces cerevisiae, UniProt P17106, residues 1-351)
UniProt P17106, sequence (whole entry, looked up): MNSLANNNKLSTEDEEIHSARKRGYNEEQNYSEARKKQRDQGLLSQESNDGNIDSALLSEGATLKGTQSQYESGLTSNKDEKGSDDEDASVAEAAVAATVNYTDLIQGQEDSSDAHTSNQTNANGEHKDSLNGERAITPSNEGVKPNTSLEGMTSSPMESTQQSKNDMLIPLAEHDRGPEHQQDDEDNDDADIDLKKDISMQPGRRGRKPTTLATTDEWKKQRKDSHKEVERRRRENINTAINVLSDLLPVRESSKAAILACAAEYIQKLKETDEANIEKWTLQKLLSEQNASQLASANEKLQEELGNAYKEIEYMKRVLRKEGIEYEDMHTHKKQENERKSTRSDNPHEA
Technique: competition protein-binding microarray
Form: double-stranded DNA, one strand shown
Sample: in vitro
Tested at: 2 µM
Setting: whole 60-bp probe, lowest competitor level
Added: Pho4 competitor, 0.05 µM
Reading: higher = stronger binding
Endpoint: fluorescence intensity
Constant ends, left off below: … GTCTTGATTCGCTTGACGCTGCTG
CCAAAGCAGATTTGTCACCTGGAATAGAGTTTTTGT: 79 a.u.
GCGTCCTGTAAAGAGAGCGTGCGATAAGCCGCTATT: 60.4 a.u.
AATCTTGAATGGAGTGACCTGAGACAAGGAGAGGCA: 77.9 a.u.
AAATAAAGAAATCGGCACGCTGGACGTAATGAGGTT: 75.8 a.u.
GACTTTTTCCTGAGGCACATGTGTGGCCATCGTCAA: 101 a.u.
GTCTTGTCTCATTGTCACTGAACTTTCCCCACTTCA: 80.2 a.u.
CTATTTCCGTTACCCGCCGTGCAATACAGCATCGCT: 67.9 a.u.
TATTAACGCTGCTGTCATGCCATCTCAATGGGAATT: 77.8 a.u.
AAAGCGGTAATTTGTCACACTACTTCACATATCTAT: 109 a.u.
TGTGGAGTTCAGCTTGCTACGAATACGCAGTTTTAG: 83.3 a.u.
CTTTCCCGATCTTGCTTGGTGGGTGTAGCACATTTG: 73.4 a.u.
AACTACTGCCTTTATCATGTGACGGAACTACGCTTG: 1000 a.u.
GAACCTGTGGAATTAAGCATGACAATTGGAAAGTCC: 103 a.u.

Some of these lines once more (set 2):
AACCUCCUGCCUCCCAAUACCAGCAGGAGGUUCUGGGCCUCUGAACCCCCUUUCCCCACACCUCCCCCUGCUGCUGCUGCCCCAGCGUCUUGACGGGAGCAUUGGCCCCU: 0.463
UGUAUCUUACAGCAUUGUACCCCAUUGUUAAAGAGCCGUGUCCCCUCUUCUUAUAAACGCCCUUCUAAUAAACUUUUCACCGUAAAGCUCCUGAGACAGGAGCACAGUCU: 0.643
CCAAGUGCCUUUGCUAUGUUUUUAUAUCCUGGACUGGAGGUUUAUUUUUAAUAUAUAUUAUCUAAGGAAAGAUCUGUGUGUGUGAGGGCGUUGGGCAGUGCGCCCCAUGU: 1.36
UGGUUGCUGGAGGAGGCCAGUGUAGAGCCAGUGAGAGAACUAGGAAUGACACUCAGGUUCACUGUGGAAAACUGUUCUUGGGACUGUCUCAACUGUGCAAAAAACAAAAG: 0.77
AGAUUUUUAAAAUUUCAAAUCCUAAAUCACUUCUUGUAGGAGGGUUUUCAUUAACUGCAGUAUAUACAGUUCACUACAUAUGGGUUGUUUGAGUUUUUUGUGUGCUGUAU: 1.76
GCCCUGCUGCCAGUCAUCUCCACUGAAUAAAGAAUAAUGCUCCUCUUUCAGGGUAAUAAAGUGGGGAAAAGGAACGUCUUCUCAAUGCAAGAACAUAAGCUUUCUCGUAU: 0.34
